Assay results pooled from the literature.
Protocols differ between the studies behind these lines. Values joined by “and” are separate records of one study, mostly repeats; a detail may differ.
TEK: Angiopoietin-1 receptor (TEK, Homo sapiens, UniProt Q02763)
Sequence of UniProt Q02763 (whole entry, unmodified, looked up): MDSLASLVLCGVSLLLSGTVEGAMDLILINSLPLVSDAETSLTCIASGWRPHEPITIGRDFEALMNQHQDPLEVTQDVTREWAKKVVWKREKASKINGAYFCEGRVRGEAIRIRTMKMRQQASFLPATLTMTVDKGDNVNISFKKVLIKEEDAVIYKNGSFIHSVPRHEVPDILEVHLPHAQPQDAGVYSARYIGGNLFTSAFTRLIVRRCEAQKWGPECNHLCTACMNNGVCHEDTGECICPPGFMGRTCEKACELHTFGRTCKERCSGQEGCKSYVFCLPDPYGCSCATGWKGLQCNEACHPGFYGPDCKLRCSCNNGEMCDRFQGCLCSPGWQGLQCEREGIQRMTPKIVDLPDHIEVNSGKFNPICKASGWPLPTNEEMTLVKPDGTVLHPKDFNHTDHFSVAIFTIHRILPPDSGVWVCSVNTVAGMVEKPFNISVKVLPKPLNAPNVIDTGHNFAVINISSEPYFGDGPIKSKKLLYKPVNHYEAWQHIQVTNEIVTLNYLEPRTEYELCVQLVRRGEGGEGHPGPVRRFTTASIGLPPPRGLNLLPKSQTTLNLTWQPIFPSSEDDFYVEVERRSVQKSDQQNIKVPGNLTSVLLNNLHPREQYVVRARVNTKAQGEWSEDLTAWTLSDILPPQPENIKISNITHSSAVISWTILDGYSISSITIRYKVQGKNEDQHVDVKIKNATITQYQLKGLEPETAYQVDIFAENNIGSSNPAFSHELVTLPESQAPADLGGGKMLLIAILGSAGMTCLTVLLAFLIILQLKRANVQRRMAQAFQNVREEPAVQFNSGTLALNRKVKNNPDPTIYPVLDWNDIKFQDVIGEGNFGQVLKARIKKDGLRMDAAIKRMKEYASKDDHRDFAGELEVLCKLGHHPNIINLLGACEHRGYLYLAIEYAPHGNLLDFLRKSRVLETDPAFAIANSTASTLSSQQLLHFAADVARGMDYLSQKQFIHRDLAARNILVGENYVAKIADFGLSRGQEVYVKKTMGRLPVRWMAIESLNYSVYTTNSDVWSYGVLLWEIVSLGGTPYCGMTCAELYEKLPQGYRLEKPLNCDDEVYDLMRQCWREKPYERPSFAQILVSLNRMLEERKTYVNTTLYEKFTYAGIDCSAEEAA

SMILES = O=c1c(-c2ccc(Cl)c(CN3CCOCC3)c2)coc2cc(O)ccc12; target = TEK; assay = enzyme activity, inhibitor; conditions = 1 µM; endpoint = remaining activity; result = 88%
SMILES = C=C1CCCCCCCCCC(CO)C1=O (stereo not shown); target = TEK; assay = cell-free assay; conditions = 10 µM; endpoint = remaining signal; result = 90%
SMILES = COc1c(OCCCN2CCOCC2)ccc2c1N=C(NC(=O)c1cnc(N)nc1)N1CCN=C21; target = TEK; assay = kinase activity, inhibitor; conditions = 1 µM; how to read = reference: untreated control; endpoint = remaining activity; result = 102%
SMILES = COc1ccc(NC(=O)Nc2ccc3c(c2)C(=O)N(C(C)CO)CC(C)C(CN(C)Cc2ccc4c(c2)OCO4)O3)cc1 (stereo not shown); target = TEK; assay = binding, competition with immobilised ligand; conditions = 10 µM; endpoint = remaining binding; result = 97%
SMILES = C=CC(=O)Nc1cccc(-c2cnc3[nH]cc(C(=O)NC(C)(C)C)c3n2)c1; target = TEK; assay = enzyme activity, inhibitor; conditions = 0.1 µM; endpoint = inhibition; result = 0%
SMILES = Cc1cccc(O[C@H]2CCC[C@@H](C(C)CNCc3ccncc3)C2)c1 (relative stereo); target = TEK; assay = cell-free assay; conditions = 10 µM; endpoint = inhibition; result = -1%
SMILES = COCC12C(=O)NC3C4(C(OC)CC1O)C1CC5(O)C(OC)C(O)C(OC(C)=O)(C1C5OC(=O)c1ccccc1)C3(O)C(OC)C24 (stereo not shown); target = TEK; assay = kinase activity, inhibitor, ProQinase kinase profiling; conditions = 25 µM; how to read = reference: control; endpoint = remaining activity; result = 108% and 101%
SMILES = O=C(Nc1ccc(Oc2ncnc3[nH]cc(-c4ccccc4)c23)c(F)c1)c1c2n(n(-c3cc(F)ccc3F)c1=O)CCCC2; target = TEK; assay = enzyme activity, inhibitor; conditions = 0.5 µM; endpoint = inhibition; result = 79%
SMILES = CCN1CCN(Cc2ccc(NC(=O)c3ccc(C)c(NC(=O)c4cncc(-c5cccs5)c4)c3)cc2C(F)(F)F)CC1; target = TEK; assay = binding, competition with immobilised ligand; conditions = 1 µM; endpoint = remaining binding; result = 11%
SMILES = O=C=[N][Ru-4]123([n]4c5ccc(O)cc5c5c6c(c7cc(F)c[n+]1c7c54)C(=O)NC6=O)[S+]1CC[S+]2CC[S+]3CC1 (stereo not shown); target = Angiopoietin-1 receptor (TEK, Homo sapiens, UniProt Q02763, Y897S); assay = enzyme activity; conditions = 100 nM, human enzyme, added: 10 µM ATP; how to read = reference: untreated; endpoint = remaining activity; result = 108%
SMILES = CCn1cc(C(=O)O)c(=O)c2c(N)c(F)c(NC3CCCCC3)cc21; target = TEK; assay = kinase activity; conditions = 0.1 µM, added: ATP at Km; endpoint = inhibition; result = 3.8%
SMILES = CN1CCN(Cc2ccc(NC(=O)c3cccc(C#Cc4cnc(N)c5ncccc45)c3)cc2C(F)(F)F)CC1; target = TEK; assay = cell-free assay, competition with immobilised ligand; conditions = 50 nM; endpoint = remaining binding; result = 0.9%
SMILES = COc1ccc(O)cc1-c1c[nH]c2ncc(-c3cncc(C(=O)N(C)C)c3)cc12; target = TEK; assay = binding, competition with immobilised ligand; conditions = 0.2 µM; endpoint = inhibition; result = 8.72%
SMILES = CCN1CCN(Cc2ccc(C(=O)Nc3ccc(C)c(NCc4cnc5[nH]ccc5c4OC)c3)cc2C(F)(F)F)CC1; target = TEK; assay = binding, competition with immobilised ligand; conditions = 1 µM; endpoint = remaining binding; result = 0.35%
SMILES = Cc1ccc(C(=O)Nc2ccc(CN3CCN(C)CC3)c(C(F)(F)F)c2)cc1C#Cc1cnc2cccnn12; target = TEK; assay = NanoBRET target engagement; system = human cells; endpoint = Hill slope; result = 0.779
SMILES = Nc1ncc(-c2cc(-c3cnn(CC(F)(F)F)c3)ncc2F)nc1C(=O)NC1CNCC(F)C1 (stereo not shown); target = TEK; assay = enzyme activity; conditions = 1 µM; how to read = reference: DMSO control; endpoint = remaining activity; result = 107%
SMILES = Cc1cnc2nc1Nc1cccc(c1)COC/C=C/COCc1cc(ccc1OCCN1CCOCC1)N2; target = TEK; assay = binding, competition with immobilised ligand; conditions = 0.1 µM; endpoint = remaining binding; result = 100%
SMILES = NC(=O)C[C@H]1CCc2sc3ncnc(O[C@H]4CC[C@H](N5CCOCC5)CC4)c3c21; target = TEK; assay = enzyme activity, inhibitor; conditions = 10 µM; endpoint = inhibition; result = 2%
SMILES = COc1cc(Nc2nc(C)cc(-c3cnn4nc(OC)ccc34)n2)cc(C(F)(F)F)c1; target = TEK; assay = binding, competition with immobilised ligand; conditions = 1 µM; endpoint = remaining binding; result = 100%
SMILES = Nc1ncc2c(n1)-c1c([nH]c3ccc(C4=CCOCC4)cc13)CCC2; target = TEK; assay = binding, competition with immobilised ligand; conditions = 1 µM; endpoint = remaining binding; result = 100%
SMILES = C=CC(=O)N1CCc2ccc(-n3c(=O)ccc4cnc5ccc(-c6cnn(C)c6)cc5c43)cc21; target = TEK; assay = KINOMEscan; conditions = 1 µM; how to read = reference: DMSO control; endpoint = remaining binding; result = 73%
SMILES = C=CC(=O)N1CCCC(n2c(=O)c3ncccc3n(Cc3ccc(Oc4ccccc4)cc3)c2=O)C1 (stereo not shown); target = TEK; assay = cell-free assay, competition with immobilised ligand; conditions = 1 µM; endpoint = remaining binding; result = 89%
